Experimental data pooled from the literature.
Target: Mitogen-activated protein kinase kinase kinase 19 (MAP3K19, Homo sapiens, UniProt Q56UN5)

For `CCN1CCN(Cc2ccc(C(=O)Nc3ccc(C)c(NCc4cnc5[nH]ccc5c4OC)c3)cc2C(F)(F)F)CC1`, the remaining binding was 2.8% (binding, competition with immobilised ligand; 1 µM).
`C=CC(=O)N1CCc2ccc(-n3c(=O)ccc4cnc5ccc(-c6cnn(C)c6)cc5c43)cc21` gave a remaining binding of 100% (KINOMEscan; 1 µM; relative to: DMSO control).
The remaining binding of `Nc1ncc2c(n1)-c1c([nH]c3ccc(C4=CCOCC4)cc13)CCC2` is reported as 9.4% (binding, competition with immobilised ligand; 1 µM).
With `COc1ccc(O)cc1-c1c[nH]c2ncc(-c3cncc(C(=O)N(C)C)c3)cc12` the inhibition was 9.59% (binding, competition with immobilised ligand; 0.2 µM).
The remaining binding of `Cc1cc(NC(=O)[C@H](O)c2cc(F)cc(F)c2)ccc1-c1cnc(N)c(C(=O)NC(C)C)c1` is reported as 5.2% (binding, competition with immobilised ligand; 10 µM).
With `COc1c(Cl)cccc1Nc1c(-c2ccncc2C#C[C@@]2(C)CCCN2C(=O)/C=C/CN(C)C)[nH]c2c1C(=O)NCC2` the remaining binding was 67% (binding, competition with immobilised ligand; 3 µM).
For `Cc1c[nH]c2nccc(-c3ccc(C(=O)N[C@@H]4c5c(F)cc(C(F)F)cc5C[C@@H]4O)cn3)c12`, the remaining binding was 4% (binding, competition with immobilised ligand; 3 µM).
With `COc1cc(Nc2nccc(-c3cnn4nc(OC)ccc34)n2)cc(C(F)(F)F)c1` the remaining binding was 100% (binding, competition with immobilised ligand; 1 µM).
`Cc1ccc(-c2c(/C=C(\C#N)C(=O)NC(C)C)n(CCCO)c3ncnc(N)c23)cc1` has a remaining binding of 94% (cell-free assay, competition with immobilised ligand; 1 µM).
The remaining binding of `CCN1CCN(Cc2ccc(NC(=O)c3ccc(C)c(NC(=O)c4cncc(-c5cnn(C)c5)c4)c3)cc2C(F)(F)F)CC1` is reported as 100% (binding, competition with immobilised ligand; 1 µM).

Some of these lines once more:
The remaining binding of `Cc1cc(NC(=O)[C@H](O)c2cc(F)cc(F)c2)ccc1-c1cnc(N)c(C(=O)NC(C)C)c1` is reported as 5.2% (binding, competition with immobilised ligand; 10 µM).
